Published values of several laboratories.
Every numbered part comes from another study and shows a few of its results, in no order.

Series 1
Target: Replicase polyprotein 1ab, nsp13 helicase (rep, Severe acute respiratory syndrome coronavirus 2, UniProt P0DTD1)
Action: inhibitor
Tested at: 20 µM
| SMILES | inhibition [%] |
| --- | --- |
| C=CCN1CC[C@]23c4c5ccc(O)c4O[C@H]2/C(=N/NC(=O)c2ccccc2)CC[C@@]3(O)[C@H]1C5 | 6.24 |
| O=C(O)CCNc1cc(N2CCc3ccccc3CC2)nc(-c2cccnc2)n1 | 2.04 |
| CCCCCCCCN=c1ccn(CCCCCCCCCCn2ccc(=NCCCCCCCC)cc2)cc1 | 90 |
| CCCCCCCCCCCCCCCC[N+](C)(C)C | 29 |
| CC(C)NC(=O)c1ccc(C#Cc2ccncc2)cn1 | 4.92 |
| CC(C)(C)c1ccc(/C=C/C(=O)Nc2ccc3c(c2)OCCO3)cc1 | -3.48 |
| CC[C@@]1(O)C(=O)OCc2c1cc1n(c2=O)Cc2cc3c(CN(C)C)c(O)ccc3nc2-1 | 5.31 |
| Cc1[nH]c(/C=C2\C(=O)Nc3ccc(F)cc32)c(C)c1C(=O)NC[C@H](O)CN1CCOCC1 | 9.08 |
| CCc1c(C(=O)Nc2cc(S(=O)(=O)N(CC)CC)ccc2O)[nH]c(C)c1C(C)=O | -8.78 |
| Oc1cc(O)c2cc(O)c(-c3cc(O)c(O)c(O)c3)[o+]c2c1 | 71.8 |
| CC(C)C[C@H](NC(=O)CNC(=O)c1cc(Cl)ccc1Cl)B1OC(=O)CC(CC(=O)O)(C(=O)O)O1 (stereo partly drawn) | 4.82 |
| OC(CCCN1CCCCC1)(c1ccccc1)c1ccccc1 | 6.35 |
| CO[C@@H]1[C@@H](O[C@@H]2O[C@H](C)[C@@H](O[C@H]3C[C@@](C)(O)[C@@H](OC(=O)CC(C)C)[C@H](C)O3)[C@H](N(C)C)[C@H]2O)[C@@H](CC=O)C[C@@H](C)[C@@H](O)/C=C/C=C/C[C@@H](C)OC(=O)C[C@H]1OC(C)=O | -0.74 |
| O=C(O)c1c2ccccc2cc2ccccc12 | 2.35 |
| Oc1cc2c(c(Cl)c1O)CCNCC2c1ccccc1 (stereo not drawn) | 0 |
| Cc1cc(Nc2cc(CN3CCOCC3)c3nc(C)c(Cc4ccc(Cl)cc4F)n3n2)n[nH]1 | 8.54 |
| Cc1ncc([N+](=O)[O-])n1CC(O)CCl (stereo not drawn) | -4.82 |
| CNC(=O)[C@H](Cc1ccccc1)NC(=O)[C@H](CC(C)C)[C@H](CSc1cccs1)C(=O)NO | -2.03 |
| CCOC(=O)[C@H]1O[C@@H]1C(=O)N[C@@H](CC(C)C)C(=O)NCCC(C)C | -26.4 |
| CNS(=O)(=O)Cc1ccc2[nH]cc(CCN(C)C)c2c1 | 6.61 |
| Cc1nc(Nc2ccc(F)cc2)nc(N2CCc3ccccc3C2C)c1C (stereo not drawn) | 8.39 |
| CCCCCCCCCCCC(=O)O | 3.69 |
| CN(C)C(=O)Nc1cccc(-c2ccc(N(C)C)cc2)c1 | 3.13 |
| O=C(O)C1CN(Cc2ccc(-c3nc4cc(Cc5ccccc5F)ccc4s3)c(F)c2)C1 | -2.37 |
| COc1cnc(-c2ccc(Cn3c(CC(C)(C)C(=O)O)c(SC(C)(C)C)c4cc(OC[C@@H]5Cc6ccccc6N5C(C)=O)ccc43)cc2)nc1 | 9.53 |

Series 2
Target: Replicase polyprotein 1ab, main protease (rep, Severe acute respiratory syndrome coronavirus 2, UniProt P0DTD1)
Observed: enzyme activity
Action: inhibitor
Tested at: 20 µM
Notes: primary screen
| SMILES | inhibition |
| --- | --- |
| NS(=O)(=O)c1ccc2c(c1)C1C=CCC1C(c1ccc(Br)cc1)N2 (stereo not drawn) | 27.1% |
| Nc1nc(=S)c2ncn(C3OC(CO)C(O)C3O)c2[nH]1 (stereo not drawn) | 102% |
| CCOC(=O)C1=C(N)Oc2ccc(Br)cc2[C@H]1[C@H](C#N)C(=O)OCC | 44.3% |
| Nc1cc(-c2ccncc2)c[nH]c1=O | 56% |

Series 3
Target: PABPC1L2, full length, GST fusion (mouse, UniProt A0ABA7IW68)
Technique: RNAcompete
Form: RNA
Matrix: in vitro
Tested at: 20 nM
Notes: 7-mer, probes averaged, single round
Baseline: mean of 7-mers
Direction: higher = stronger binding
Target sequence (chain): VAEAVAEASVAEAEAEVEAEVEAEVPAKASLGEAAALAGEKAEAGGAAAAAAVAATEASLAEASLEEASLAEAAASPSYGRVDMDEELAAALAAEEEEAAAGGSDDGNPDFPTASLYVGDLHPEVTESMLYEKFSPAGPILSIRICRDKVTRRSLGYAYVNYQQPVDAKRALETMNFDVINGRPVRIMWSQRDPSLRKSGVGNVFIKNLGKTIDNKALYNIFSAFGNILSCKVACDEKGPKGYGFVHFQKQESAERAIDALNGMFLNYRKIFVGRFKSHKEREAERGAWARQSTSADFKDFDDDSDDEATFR
| Oligonucleotide | 7-mer Z-score |
| --- | --- |
| GGGGAAC | 0.131 |
| AGACCAA | 0.298 |
| ACGGGGG | 0.184 |
| UACCUCU | -0.271 |
| ACGAUCC | -0.211 |
| GCUCUCG | -0.264 |
| UUACGCU | -0.353 |
| UUAACCA | -0.112 |

Series 4
Target: RNA binding protein fox-1 homolog 2, RRM domain, GST-SBP tag (RBFOX2, Homo sapiens, UniProt O43251-10, residues 100-194)
Technique: RNA Bind-n-Seq
Form: RNA
Matrix: in vitro
Tested at: 365 nM
Notes: natural RNA segment, single round, ends assumed
Baseline: no-protein control
Direction: higher = stronger binding
Shared flanks, not repeated: GGGAGUUCUACAGUCCGACGAUC … UGGAAUUCUCGGGUGCCAA
Residues (chain): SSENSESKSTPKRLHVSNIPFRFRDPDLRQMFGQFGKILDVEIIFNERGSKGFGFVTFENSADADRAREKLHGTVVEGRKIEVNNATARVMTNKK
| Oligonucleotide | RBNS enrichment (R) |
| --- | --- |
| CAAAGCGCCUUUACACAGGCCUCGGAAAACAAUGGAGUGAGCACAAGAUGCCCUGUGCAGCUGCCCGAGGGUCUCCGCCCACCCCGGCCGGACUUUGAUCCCCCCGAAGU | 0.204 |
| CCAGUCCCCCAACACUCCCUUCUUCGGAUACAGGUGCCAAAGAACAUUGUGAAGAAAUGAAGAACCGAUAGUCUAGUUUAAGAAAGUGGCUCUCAGUAUUGUGACAGUAC | 0.43 |
| GUUCAUGUGUUGAAUUUGUAAAUAUAAUUUGCAACCAAAUGAAGUAUUUAUUUUUAAAAAGAAAAGGUGGAGGAACCAAUAUCAACUUGUACAUAAUGAAAAUAUGCGUG | 0.767 |
| CCCCCACUCUCCCCACACUAACCUGGGUUCCCUUUCCUUCCAUCCCUACCCCCUAAGAGCCAUUUAGGGGCCACUUUUGACUAGGGAUUCAGGCUGCUUGGGAUAAAGAU | 0.472 |
| GUUAGUUGGGCAGCCCUUCUGGGUUUCAGAGACCGGUGUUGGCUCUAGACUGGUCUCAUCUCCAUUGCCUUAAUGCCAGGUGGCCCAGGAGUACCCAUGCACAGCAGCUG | 0.531 |
| UGAGCUACUGUUGGCUGCUGCCCUCCUUCCCAGUGAAAGGUACAGAGCAAUAAGCAUCAUGCAUCUCCCCGAUUCCCACUAGCACCCCUCUGCCUCUGGCUCAGGUUGCU | 0.941 |
| UUUUUUUUUUUCUUUUUGAGAUGGAGUCUCGCUCUGUUGCCCAGGUUGGAGUGCAGUGGCACGAUCUCGGCUCACUGCAACCUCACCUCCCGGGUUCAAGAGAUCCUCCU | 0.294 |
| UGUUGGUACUCAGAGUUGUAUUUGCAGCAGAAAAUGCAGAAUAACCCAGAAAUGGAGCCCGGAGCCCAAUUCCAGAGAGGAAGGGAAAGAAGAGACGAUGCCUGGACAAU | 0.706 |

Series 5
Target: Histone acetyltransferase KAT6A, winged helix 2, GST fusion (KAT6A, Homo sapiens, UniProt Q92794, residues 85-181)
Technique: protein binding microarray
Form: double-stranded DNA, one strand shown
Matrix: in vitro
Tested at: not given
Notes: 8-mer, flanks averaged, mean of 2 arrays, mostly near background
Baseline: not given
Direction: higher = stronger binding
Residues (chain): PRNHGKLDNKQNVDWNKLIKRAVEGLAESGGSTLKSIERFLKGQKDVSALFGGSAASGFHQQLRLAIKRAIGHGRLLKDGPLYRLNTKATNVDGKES
| Oligonucleotide | E-score |
| --- | --- |
| CGGGTCCA | -0.0136 |
| AGACTACA | -0.197 |
| CACCATAG | -0.0799 |
| ATGCGGGG | 0.0353 |
| CGTACAGC | -0.116 |
| AATTATGA | 0.103 |
| CTCGAGAG | -0.0154 |
| AATCGATT | -0.147 |

Series 6
Cell line: HEK-293T
Observed: pseudovirus infection
Technique: FDA-approved drug library screen
Organism: VSV pseudotyped with SARS-CoV-2 spike
Tested at: 10 µM
Time: 16 h
Baseline: vehicle-treated
| Compound | GFP-positive cells [%] |
| --- | --- |
| CCN(CC)C(=O)/C(C#N)=C/c1cc(O)c(O)c([N+](=O)[O-])c1 | 81.1 |
| NS(=O)(=O)Cc1noc2ccccc12 | 107 |
| Cc1cccc(Nc2ccccc2C(=O)O)c1C | 60.7 |
| O=C1OC2(c3ccc(O)cc3Oc3cc(O)ccc32)c2ccccc21 | 93.1 |

A few entries again (series 6):
| Compound | GFP-positive cells [%] |
| --- | --- |
| Cc1cccc(Nc2ccccc2C(=O)O)c1C | 60.7 |
| O=C1OC2(c3ccc(O)cc3Oc3cc(O)ccc32)c2ccccc21 | 93.1 |
| CCN(CC)C(=O)/C(C#N)=C/c1cc(O)c(O)c([N+](=O)[O-])c1 | 81.1 |
| NS(=O)(=O)Cc1noc2ccccc12 | 107 |
